# Measured values from different studies.
# A part holds a random share of what one study measured.

# Series 1
# Target: RING finger protein unkempt homolog, zinc fingers 1-6, GST-SBP tag (UNK, Homo sapiens, UniProt Q9C0B0, residues 30-357)
# Chain of UniProt Q9C0B0 (30-357, looked up): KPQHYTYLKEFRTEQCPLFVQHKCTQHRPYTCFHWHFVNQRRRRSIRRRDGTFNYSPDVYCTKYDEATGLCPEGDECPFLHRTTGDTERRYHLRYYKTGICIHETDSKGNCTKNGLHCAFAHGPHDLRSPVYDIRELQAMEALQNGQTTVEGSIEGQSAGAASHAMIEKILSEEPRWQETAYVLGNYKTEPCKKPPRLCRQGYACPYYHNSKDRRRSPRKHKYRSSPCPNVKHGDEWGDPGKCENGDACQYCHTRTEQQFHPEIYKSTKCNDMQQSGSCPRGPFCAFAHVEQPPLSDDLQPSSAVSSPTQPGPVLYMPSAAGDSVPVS
# Method: RNA Bind-n-Seq
# Molecule type: RNA
# Matrix: in vitro
# Tested at: not given
# Notes: RNA with constant flanks, human and mouse sites, ends assumed
# Baseline: input RNA pool
# Reading: higher = stronger binding
# Shared flanks, not repeated: GGGAGUUCUACAGUCCGACGAUC … CAACAGAGGAUUGAGCAUCA
Strand,bound/input enrichment
GCUUUACUUUCAGAAAAUGUUUUAGGGUAACUGCAUAAGACUAUGCAAUAAUUUUUAAUCAUUAGUAUUGAUGGUGUAUUAAAAGUUGUUGUACUUUGUCUGUGACCUUAAUUUUCUGCA,0.146 ratio
AUUGUUGAAGCGAAUCCACUUUUAGAAGCAUUUGGAAAUGCAAAGACUGUUCGCAACAAUAAUAGCAGUCGAUUUGGAAAAUUUGUAGAAAUUCAUUUCAAUGAAAAGAGUUCGGUUGUU,0.274 ratio
GACAGUGGAGAAGAGGUGGACUUGGUUAAGGAAGCGGACGUCCCCUCAGCCAUUAGUCUCCUUAGGUUUUUCCUGCAGGAGCUCCCUGAGCCCGUCAUACCUGGCAGCUUGCAUAUUCAC,0.247 ratio
AAGUCAGCCCUGACUGUACAGUUUGUUCAAGGAAUUUUUGUUGAAAAAUAUGAUCCUACGAUAGAAGAUUCUUAUAGAAAGCAAGUUGAAGUAGAUGCACAGCAGUGUAUGCUUGAAAUC,1.98 ratio
CUGCUACUUUGGGCUCAGAAUGAGCUAGACCAGAAGAAAGUAAAAUAUCCCAAAAUGACAGACCUCAGCAAAGGUGUGAUUGAGGAGCCCAAGUAGAGCCUGUGCAUGGACCCAGCACUG,0.23 ratio

# Series 2
# Target: Prothrombin, mature alpha-thrombin (F2, Homo sapiens, UniProt P00734)
# Method: aptamer microarray, sandwich
# Molecule type: DNA with 2'F-ANA
# Matrix: in vitro
# Tested at: 200 nM
# Notes: whole 15-mer aptamer, many near background
# With: Cy3 exosite-II aptamer, 400 nM
# Reading: higher = stronger binding
# Strand: GGTTGGTGTGGTTGG
Modification,mean fluorescence intensity
2'F-ANA at 3 5 6 9 10 11 13 15,55.4 a.u.
2'F-ANA at 3 8 10 11 12 14,342 a.u.
2'F-ANA at 1 2 3 7 11 13 14,70.6 a.u.
2'F-ANA at 5 7 8 10 11 12 13 14 15,51.5 a.u.
2'F-ANA at 1 5 8 9 10 11 12 14 15,49.7 a.u.
2'F-ANA at 1 2 3 4 6 9 10 13 14 15,53.6 a.u.
2'F-ANA at 3 4 6 8 9 10 13 15,181 a.u.
2'F-ANA at 4 5 6 7 8 9 11,74.6 a.u.
2'F-ANA at 1 2 8 9 11 13 14,59.3 a.u.
2'F-ANA at 1 2 9 10 11 12 13,54.5 a.u.

# Series 3
# Target: RNA binding protein fox-1 homolog 2, RRM domain, GST-SBP tag (RBFOX2, Homo sapiens, UniProt O43251-10, residues 100-194)
# Method: RNA Bind-n-Seq
# Molecule type: RNA
# Matrix: in vitro
# Tested at: 365 nM
# Notes: natural RNA segment, single round, ends assumed
# Baseline: no-protein control
# Reading: higher = stronger binding
# Shared flanks, not repeated: GGGAGUUCUACAGUCCGACGAUC … UGGAAUUCUCGGGUGCCAA
Strand,RBNS enrichment (R)
AAUAAUGAAGAAAAGAAGGACAGACGCAAGGAAGAAAAGGAAUAAUAAAUAUGAAGUAAGAUUACAACAGAGCAGAACUUGCACCCACCAUUUUUUUUACCUGAUUUUUG,0.465
UUUAUCGUUCCAAGCUUCAUCUUAGCUUCAGAACAAACUGUUAAAUCAUGAUUUUGCAGAACCUUUGGUUUGGACAGUUCUGUUCUUUUGGAUUUGGAAUAGAUUACAUA,0.484
UCCUUCCUCUCCCUCCUGAUAAACAUCUAAGCAGUUUCUAAGUCUAGUUUUACCUCUUAAAUAUCUCUGUUCCCUUCUAAGUUGUUUGCUGUGUUUUCUUCAGAGCAAGA,0.564
UCAGCUGCCUACAGUUUAAUAUGCAGCGUUCACAAAACAGCUGCCAGUGCUACAAUUAAUGAAGCAAAACUUAAUAUGUAAUCACAAUCUAAAUUAGCAUCAAUACUUUG,0.364
UUUGUUGUUGAAUCCGGGUAUCCAGGCUGAGAAGGGAAGAAAAAUAGCCACUAACUCUGCAACAAUCCUUGGCUGUUGUCAUUGUUGUCUUUAUUUUAGGCUGGAUUUCA,1.1

# Single results of other studies
Molecule,target,test,system,conditions,scale,endpoint,result
"PhoQ, residues 284 288 289 292 302 303 SVTLVV","PhoP, residues 12 14 15 18 19 GHCSL (Escherichia coli, UniProt P23836)","Sort-seq, refers to: YFP reporter",E. coli,"PhoQ-PhoP variant library, with: 10 µM Mg2+","baseline: high Mg2+ state, higher = stronger signaling",fold induction,18

# Repeated from above (series 2):
Modification,mean fluorescence intensity
2'F-ANA at 3 8 10 11 12 14,342 a.u.
2'F-ANA at 1 2 8 9 11 13 14,59.3 a.u.
2'F-ANA at 1 2 3 7 11 13 14,70.6 a.u.
